Published values from different studies.
± marks the error that the study gave.
IDE: Insulin-degrading enzyme (IDE, Homo sapiens, UniProt P14735)

For Cc1[nH]cc(Br)c(=O)c1-c1ccc(Oc2ccccc2)cc1, the IC50 was 253 ± 109 nM (Plasmodium yoelii; 17XL; 384-well).
The MIC of CC[C@H](C)CCCCC(=O)N[C@@H](CCN)C(=O)N[C@H](C(=O)N[C@@H](CCN)C(=O)N[C@H]1CCNC(=O)[C@H]([C@@H](C)O)NC(=O)[C@H](CCN)NC(=O)[C@H](CCN)NC(=O)[C@H](CC(C)C)NC(=O)[C@@H](CC(C)C)NC(=O)[C@H](CCN)NC1=O)[C@@H](C)O is reported as 4 µg/mL (Staphylococcus simulans; broth microdilution; 22, cation-adjusted Mueller-Hinton broth; 20 to 24 h, 37 °C, 0.002% polysorbate 80).
With Cc1ccccc1-c1ccc([C@@H]2[C@H]3CN(C(=O)c4cccnc4)CC(=O)N3[C@H]2CO)cc1 the EC50 was 2600 nM (IDE; enzyme activity, inhibitor, fluorogenic kinetic; together with: Mca-RPPGFSAFK(Dnp)-OH substrate).
C[C@H]1COc2c(N3CCN(C)CC3)c(F)cc3c(=O)c(C(=O)O)cn1c23 gave an MIC of ≤ 0.03 µg/mL (Citrobacter freundii; agar dilution; ATCC 43864 susceptible).
The MIC of CC1NC(=O)C(C(=O)NC(C(=O)NC2C(=O)N3C2SC(C)(C)C3C(=O)O)c2ccccc2)=C1O (stereo not shown) is reported as 25 µg/mL (Escherichia coli; broth microdilution; ATCC 25922 wild type; together with: clavulanic acid 6 µg/mL).
With CC(=O)NC[C@H]1CN(c2ccc(N3CCOCC3)c(F)c2)C(=O)O1 the MIC was 2.96 µM (Enterococcus hirae; ATCC 10541).
With CNC(C)C1CCC(N)C(OC2C(N)CC(N)C(OC3OCC(C)(O)C(NC)C3O)C2O)O1 (stereo not shown) the MIC was > 8 µg/mL (Pseudomonas aeruginosa; clinical isolate RKI-No_481/15).
FC(F)(F)c1ccc(OCCn2c(CNCC34CC5CC(CC(C5)C3)C4)nc3ccccc32)cc1 has an MIC of 8 µg/mL (Streptococcus pneumoniae; ATCC 49619).
N=C(N)c1ccc(OCc2ccccc2COc2ccc(C(=N)N)cc2)cc1 gave an MIC of 25 µg/mL (Escherichia coli; 552100; in combination, checkerboard, together with: rifampicin).
With O=C(Nc1ccc(OC2CCN(Cc3ccccc3)C2)c(Cl)c1)c1cccs1 (stereo not shown) the IC50 was 2620 ± 996 nM (Plasmodium yoelii; 17XL; 384-well).
For C[C@@H](O)[C@H]1C(=O)N2C(C(=O)O)=C(S[C@@H]3CN[C@H](C(=O)N(C)C)C3)[C@H](C)[C@H]12, the MIC was 32 µg/mL (Klebsiella oxytoca; broth microdilution; isolate RKI 52/07).
The MIC of CCCCCCCCCC(=O)N[C@@H](Cc1c[nH]c2ccccc12)C(=O)N[C@H](CC(N)=O)C(=O)N[C@@H](CC(=O)O)C(=O)N[C@@H]1C(=O)NCC(=O)N[C@@H](CCCN)C(=O)N[C@@H](CC(=O)O)C(=O)N[C@H](C)C(=O)N[C@@H](CC(=O)O)C(=O)NCC(=O)N[C@H](CO)C(=O)N[C@@H]([C@H](C)CC(=O)O)C(=O)N[C@@H](CC(=O)c2ccccc2N)C(=O)O[C@@H]1C is reported as > 128 µg/mL (Staphylococcus simulans; broth microdilution; 22, Mueller-Hinton broth, Mg2+ 10 mg/L; 16 h, 30 °C, together with: Ca2+ 0 mM).
For Cc1cccc(-c2ccc([C@@H]3[C@@H](CO)N4CCCCN(C(=O)c5ccncc5)C[C@@H]34)cc2)c1, the EC50 was 16500 nM (IDE; enzyme activity, inhibitor, fluorogenic kinetic; together with: Mca-RPPGFSAFK(Dnp)-OH substrate).
For CC1(C)S[C@@H]2[C@H](NC(=O)[C@H](N)c3ccccc3)C(=O)N2[C@H]1C(=O)O, the MIC was > 16 µg/mL (Pseudomonas aeruginosa; clinical isolate RKI-No_253/15).
Fc1c(F)c(F)c(OCCn2c(CNCC34CC5CC(CC(C5)C3)C4)nc3ccccc32)c(F)c1F gave an MIC of 8 µg/mL (Streptococcus pneumoniae; ATCC 49619).
CC(C)C[C@@H]1NC(=O)[C@@H](Cc2ccccc2)NC(=O)[C@H](CCN)NC(=O)[C@@H](NC(=O)[C@H](CCN)NC(=O)[C@@H](N)[C@@H](C)O)CCNC(=O)[C@H]([C@@H](C)O)NC(=O)[C@H](CCN)NC(=O)[C@H](CCN)NC1=O gave an MIC of > 200 µg/mL (Escherichia coli; BW25113).

Some of these lines once more:
CC(C)C[C@@H]1NC(=O)[C@@H](Cc2ccccc2)NC(=O)[C@H](CCN)NC(=O)[C@@H](NC(=O)[C@H](CCN)NC(=O)[C@@H](N)[C@@H](C)O)CCNC(=O)[C@H]([C@@H](C)O)NC(=O)[C@H](CCN)NC(=O)[C@H](CCN)NC1=O gave an MIC of > 200 µg/mL (Escherichia coli; BW25113).
The MIC of CC1NC(=O)C(C(=O)NC(C(=O)NC2C(=O)N3C2SC(C)(C)C3C(=O)O)c2ccccc2)=C1O (stereo not shown) is reported as 25 µg/mL (Escherichia coli; broth microdilution; ATCC 25922 wild type; together with: clavulanic acid 6 µg/mL).
